Experimental data collected from several papers.
Numbered parts are unrelated; each lists some results of a single study. Changes are numbered by the printed parent chain.

Study 1
Target: ABI1, truncated, D143A, DHFR fusion (Arabidopsis thaliana)
Technique: DHFR PCA, deep sequencing
Matrix: yeast
Notes: methotrexate growth selection, single substitutions
Added: (+)-ABA 4.8 µM
Relative to: wild-type fitted maximum
Reading: higher = stronger binding
Starting sequence: PYL1, truncated, DHFR fusion (Arabidopsis thaliana); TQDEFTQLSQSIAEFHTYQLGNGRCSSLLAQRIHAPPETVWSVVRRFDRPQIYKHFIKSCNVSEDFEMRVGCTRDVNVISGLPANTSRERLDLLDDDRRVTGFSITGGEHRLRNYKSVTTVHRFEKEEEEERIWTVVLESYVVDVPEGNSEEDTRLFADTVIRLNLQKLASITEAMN; partner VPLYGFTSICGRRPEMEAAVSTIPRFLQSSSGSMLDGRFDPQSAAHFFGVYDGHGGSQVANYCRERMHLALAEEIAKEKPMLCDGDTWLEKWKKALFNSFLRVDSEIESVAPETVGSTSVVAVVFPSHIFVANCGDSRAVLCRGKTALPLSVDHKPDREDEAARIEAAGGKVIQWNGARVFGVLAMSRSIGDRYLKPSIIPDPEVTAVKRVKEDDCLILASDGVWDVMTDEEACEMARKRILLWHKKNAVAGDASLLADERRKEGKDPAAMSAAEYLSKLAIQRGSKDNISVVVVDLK
Change	relative binding score [%]
F15S	12.1
Q31Y	17.3
V145I	91.6
S11F	59.6
S117M	-9.69
T17N	35.5
M176Q	69.1
F56A	-4.95
E129H	74.8
I133L	76.3
V142N	8.82
D92M	6.49
T17S	62.2
R88W	16.9
P146D	-12.7

Study 2
Target: CREBL2, bZIP domain (human)
Technique: DHFR protein complementation
Matrix: yeast
Notes: single substitutions, most at no-binding floor
Relative to: wild-type JUN-FOS pair
Reading: higher = stronger binding
Starting sequence: JUN, bZIP domain (human); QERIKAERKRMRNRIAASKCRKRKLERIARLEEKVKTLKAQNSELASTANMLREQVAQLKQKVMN; partner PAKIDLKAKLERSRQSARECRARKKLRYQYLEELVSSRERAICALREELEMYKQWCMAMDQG
Change	binding fitness [natural log]
K36I	-1.54
A46N	-1.54
L52T	-1.58
V35S	-1.53
K39A	-1.3
K34T	-1.55
I28K	-1.54
N42Q	-1.46
V35H	-1.27
K39C	-1.42
T48Y	-1.52
A40V	-1.49
L31N	-1.51

Study 3
Target: Prothrombin, mature alpha-thrombin (F2, Homo sapiens, UniProt P00734)
Technique: aptamer microarray, sandwich
Molecule type: DNA with 2'F-ANA
Matrix: in vitro
Concentration: 200 nM
Notes: whole 15-mer aptamer, many near background
Added: Cy3 exosite-II aptamer, 400 nM
Reading: higher = stronger binding
Oligonucleotide: GGTTGGTGTGGTTGG
Modification	mean fluorescence intensity [a.u.]
2'F-ANA at 6 8 9 10 11 14	100
2'F-ANA at 1 3 4 5 7 8 11 15	55.5
2'F-ANA at 1 5 9 11 12 14	44.5
2'F-ANA at 1 2 3 6 8 9 12 14	85.6
2'F-ANA at 3 8 9 10 14	507
2'F-ANA at 1 2 5 6 7 9 14	51.6
2'F-ANA at 1 2 4 5 6 7 9 11 12 13	65.5
2'F-ANA at 1 7 9 10 13 15	77.1
2'F-ANA at 2 3 6 8 9 10 11 12	337
2'F-ANA at 1 7 9 10 11 13	50.4
2'F-ANA at 5 6 7 9 11 12 13 15	79.5
2'F-ANA at 2 3 4 5 7 8 11 12	187
2'F-ANA at 2 3 4 7	758
2'F-ANA at 2 3 4 5 6 7 9 12 13	98.5
2'F-ANA at 2 5 6 7 10 13 15	45
2'F-ANA at 1 2 5 6 7 10 12	65.2
2'F-ANA at 1 2 3 4 7 9 10 14 15	64.8
2'F-ANA at 2 3 5 8 9 11 12 14	59.1
2'F-ANA at 3 4 9 12 13 14 15	349
2'F-ANA at 2 3 4 6 7 8 11 12 14 15	295
2'F-ANA at 2 4 5 6 7 8 11 12 14	53.6
2'F-ANA at 2 3 4 5 6 7 8 9 12 15	178
2'F-ANA at 2 5 6 7 8 10 11 13 15	69.1
2'F-ANA at 1 3 8 9 11 12 13 14 15	113

Study 4
Target: CCND2, cyclin fold, Cln2 fusion (human)
Technique: yeast growth competition, sequencing
Matrix: yeast
Notes: weak parent motif
Relative to: not given
Reading: higher = stronger binding
Starting sequence: BRCA2 docking peptide (human); PSIKRNLLNEFDR; partner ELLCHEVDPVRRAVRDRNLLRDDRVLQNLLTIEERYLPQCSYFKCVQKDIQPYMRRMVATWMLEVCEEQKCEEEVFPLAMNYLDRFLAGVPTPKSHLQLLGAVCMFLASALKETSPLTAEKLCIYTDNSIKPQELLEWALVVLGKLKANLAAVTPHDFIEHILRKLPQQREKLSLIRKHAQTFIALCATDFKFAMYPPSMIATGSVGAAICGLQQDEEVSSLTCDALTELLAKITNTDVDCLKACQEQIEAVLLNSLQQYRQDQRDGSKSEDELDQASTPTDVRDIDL
Change	normalised enrichment score
PSIKRNLLNEFCR [D12C]	0.12
PSIKRNLLWEFDR [N9W]	0.37
PSIKRNLLGEFDR [N9G]	0.181
NSIKRNLLNEFDR [P1N]	0.629
PSWKRNLLNEFDR [I3W]	-0.0806
PSIKRNLLMEFDR [N9M]	-0.149
PSIVRNLLNEFDR [K4V]	0.0943
PSIKRNLLNEFWR [D12W]	0.95
PSIKRNLLNEPDR [F11P]	-0.3
SSIKRNLLNEFDR [P1S]	-0.0119
PSIKRNLLNEFDG [R13G]	0.145
PSIKANALNEFDR [R5A L7A]	0.141
PSIKRNKLNEFDR [L7K]	0.126
PSIYRNLLNEFDR [K4Y]	0.0419
PSIKRNLLNEFRR [D12R]	0.415
PSIKRNLLNEDDR [F11D]	0.152
PSIKRNMLNEFDR [L7M]	0.337
PSIKRNLLNEIDR [F11I]	0.564
PSIKLNLLNEFDR [R5L]	0.211
PSIKRVLLNEFDR [N6V]	0.0627
PSIKRNLLKEFDR [N9K]	0.321
QSIKRNLLNEFDR [P1Q]	0.725
PSIKRNLSNEFDR [L8S]	0.462

Study 5
Target: RNA binding protein fox-1 homolog 2, RRM domain, GST-SBP tag (RBFOX2, Homo sapiens, UniProt O43251-10, residues 100-194)
Technique: RNA Bind-n-Seq
Molecule type: RNA
Matrix: in vitro
Concentration: 365 nM
Notes: natural RNA segment, single round, ends assumed
Relative to: no-protein control
Reading: higher = stronger binding
Constant ends, left off below: GGGAGUUCUACAGUCCGACGAUC … UGGAAUUCUCGGGUGCCAA
Construct (chain): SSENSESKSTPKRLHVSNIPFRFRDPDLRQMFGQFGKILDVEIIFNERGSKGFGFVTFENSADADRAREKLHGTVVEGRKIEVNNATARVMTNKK
Oligonucleotide	RBNS enrichment (R)
AAGCCAUUUUGGUUUUCCUUAACUAAAUGAUAAAUGUACCCCUCUCAGUCUGCAGUAUUGAGUUGUUUAAAGUAUAUGUGCAGUCUUGCUUACAAGGAGGGGUUACCAUG	0.468
AGUGCUGAUUCUAUCACUUAUCUACCAGCUCUGUGACCUUGAACAAGCCGCUUAACCUUGCUAAGCCUCUGUUUUCUCAUAUGUCAAAUGGUGAUAAUAAUGCCUACCUC	0.279
UCCUCCUCUGAGAGCAGUGAUGCAGGCCAGGAGACAUCAUUUGAGAAUGCUGAUGCUUUUGUAAGGCUUUGACCUGGUUAGGUCAUUGGGGGAAAUUUUCUAUAAAAGAG	2.32
AUUCUGCUAAAAAUGGUCUUAGUUGUCUGAAAAGCCAGCUCUUGAACCUCUUCACAACAGUAUCAACACUGGCUUCUCCCGGUUCAUUUUAUGCGUGCGAGAAGUCAGUG	0.216
UGGUGGGAGCCUCUGGCUGCAUCUGUGCAGCCACAUCCUUGUACAGAGGCAUAGGUUACCACCCCCACCCCGGCCCGGGAUACUGCCCCCGGCCCAGAUCCUGGCCGUCU	0.165
CAGUCAGGUGGGCGGUGUGUCUUUCCAGAAGGUCACGUGGAAAUGUCUCGGGACUUGGGUCCCGGAGUGCCCGUGAAGCGUGUUUUUGCUCCUGAGGUGCAUUUUCUCAU	0.35
AUUGGAUAUUUAUGUUCACACAGGAAUUUGGUUUACUGCUUUGUAAAUAAAAGGAAAAACUCCGGGUUAUGUAUAGAUGUUCUUCAUUAUAGACAUCUUCUUUGCUUUUC	1.43
UUUACAGUGCCAGAUAUUUAUACAUCAUAAACUUAGGAAAUGCCUAAAAGAGCCUAAGCAGGAAAAAUCCUAGGGUGAGGCAAUGUUUGCAUGAUGAGAGAGGAAGGGUU	2.24

Other studies, line by line
Molecule	target	test	system	setting	scale	endpoint	result
PhoQ, residues 284 288 289 292 302 303 NSMLDC	PhoP, residues 12 14 15 18 19 LWHCS (Escherichia coli, UniProt P23836)	Sort-seq, refers to: YFP reporter	E. coli	PhoQ-PhoP variant library, added: 10 µM Mg2+	relative to: high Mg2+ state, higher = stronger signaling	fold induction	9.06

Some of these lines once more (study 1):
Change	relative binding score [%]
T17N	35.5
M176Q	69.1
F56A	-4.95
E129H	74.8
I133L	76.3
V142N	8.82
D92M	6.49
T17S	62.2
R88W	16.9
